Measured values pooled from the literature.
Numbered parts are unrelated; each lists some results of a single study. Changes are numbered by the printed parent chain.
Sequence of UniProt P50613 (whole entry, looked up): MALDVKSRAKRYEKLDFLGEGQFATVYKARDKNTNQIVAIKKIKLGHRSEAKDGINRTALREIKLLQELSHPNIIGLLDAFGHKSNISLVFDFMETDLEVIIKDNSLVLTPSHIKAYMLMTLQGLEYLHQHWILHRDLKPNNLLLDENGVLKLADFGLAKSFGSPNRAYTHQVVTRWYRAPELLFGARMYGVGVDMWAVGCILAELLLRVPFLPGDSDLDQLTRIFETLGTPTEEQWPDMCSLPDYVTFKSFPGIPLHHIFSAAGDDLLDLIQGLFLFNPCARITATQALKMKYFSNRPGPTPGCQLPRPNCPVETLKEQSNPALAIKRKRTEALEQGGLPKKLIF
Sequence of UniProt Q14289 (whole entry, looked up): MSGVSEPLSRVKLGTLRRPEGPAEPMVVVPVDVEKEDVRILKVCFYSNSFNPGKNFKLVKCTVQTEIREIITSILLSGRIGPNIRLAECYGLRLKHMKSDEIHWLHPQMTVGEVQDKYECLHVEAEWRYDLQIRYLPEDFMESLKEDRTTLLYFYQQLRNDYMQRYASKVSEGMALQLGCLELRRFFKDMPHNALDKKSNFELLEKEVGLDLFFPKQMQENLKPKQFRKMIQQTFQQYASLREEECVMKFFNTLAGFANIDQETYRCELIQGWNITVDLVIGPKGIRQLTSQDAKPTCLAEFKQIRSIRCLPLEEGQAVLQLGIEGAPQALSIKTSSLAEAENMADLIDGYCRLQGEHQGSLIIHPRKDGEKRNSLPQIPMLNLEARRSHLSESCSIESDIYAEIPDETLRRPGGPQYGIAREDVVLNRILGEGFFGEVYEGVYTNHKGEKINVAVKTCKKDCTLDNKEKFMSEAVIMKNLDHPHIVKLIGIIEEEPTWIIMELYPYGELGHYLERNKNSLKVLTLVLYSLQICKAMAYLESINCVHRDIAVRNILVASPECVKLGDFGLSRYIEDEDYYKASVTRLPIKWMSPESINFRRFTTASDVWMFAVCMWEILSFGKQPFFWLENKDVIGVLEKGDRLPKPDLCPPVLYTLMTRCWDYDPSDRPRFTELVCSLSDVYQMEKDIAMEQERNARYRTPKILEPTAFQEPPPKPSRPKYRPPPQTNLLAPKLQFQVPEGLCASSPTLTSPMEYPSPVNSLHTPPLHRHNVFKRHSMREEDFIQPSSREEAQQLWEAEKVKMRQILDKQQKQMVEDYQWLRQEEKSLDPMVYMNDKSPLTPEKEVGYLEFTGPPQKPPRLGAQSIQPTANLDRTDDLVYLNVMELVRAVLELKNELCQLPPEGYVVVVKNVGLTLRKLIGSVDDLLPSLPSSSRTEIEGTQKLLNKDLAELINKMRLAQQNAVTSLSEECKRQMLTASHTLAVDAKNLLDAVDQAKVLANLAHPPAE
Sequence of UniProt P34947 (whole entry, looked up): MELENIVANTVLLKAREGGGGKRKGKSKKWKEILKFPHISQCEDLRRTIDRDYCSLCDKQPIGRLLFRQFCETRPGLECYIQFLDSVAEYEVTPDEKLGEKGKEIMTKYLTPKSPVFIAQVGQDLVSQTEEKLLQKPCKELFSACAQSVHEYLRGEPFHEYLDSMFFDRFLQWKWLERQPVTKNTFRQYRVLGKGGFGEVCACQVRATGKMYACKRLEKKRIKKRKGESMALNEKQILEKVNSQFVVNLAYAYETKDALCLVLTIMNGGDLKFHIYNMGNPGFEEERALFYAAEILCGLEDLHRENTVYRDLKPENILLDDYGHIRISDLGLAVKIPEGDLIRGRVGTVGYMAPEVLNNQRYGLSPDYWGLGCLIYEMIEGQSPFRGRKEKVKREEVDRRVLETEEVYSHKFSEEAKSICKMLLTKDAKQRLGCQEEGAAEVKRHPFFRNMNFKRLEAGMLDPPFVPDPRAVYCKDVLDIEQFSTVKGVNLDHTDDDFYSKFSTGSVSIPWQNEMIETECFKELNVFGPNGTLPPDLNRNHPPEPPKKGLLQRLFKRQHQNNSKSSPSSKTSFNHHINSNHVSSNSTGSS
Sequence of UniProt Q15139 (whole entry, looked up): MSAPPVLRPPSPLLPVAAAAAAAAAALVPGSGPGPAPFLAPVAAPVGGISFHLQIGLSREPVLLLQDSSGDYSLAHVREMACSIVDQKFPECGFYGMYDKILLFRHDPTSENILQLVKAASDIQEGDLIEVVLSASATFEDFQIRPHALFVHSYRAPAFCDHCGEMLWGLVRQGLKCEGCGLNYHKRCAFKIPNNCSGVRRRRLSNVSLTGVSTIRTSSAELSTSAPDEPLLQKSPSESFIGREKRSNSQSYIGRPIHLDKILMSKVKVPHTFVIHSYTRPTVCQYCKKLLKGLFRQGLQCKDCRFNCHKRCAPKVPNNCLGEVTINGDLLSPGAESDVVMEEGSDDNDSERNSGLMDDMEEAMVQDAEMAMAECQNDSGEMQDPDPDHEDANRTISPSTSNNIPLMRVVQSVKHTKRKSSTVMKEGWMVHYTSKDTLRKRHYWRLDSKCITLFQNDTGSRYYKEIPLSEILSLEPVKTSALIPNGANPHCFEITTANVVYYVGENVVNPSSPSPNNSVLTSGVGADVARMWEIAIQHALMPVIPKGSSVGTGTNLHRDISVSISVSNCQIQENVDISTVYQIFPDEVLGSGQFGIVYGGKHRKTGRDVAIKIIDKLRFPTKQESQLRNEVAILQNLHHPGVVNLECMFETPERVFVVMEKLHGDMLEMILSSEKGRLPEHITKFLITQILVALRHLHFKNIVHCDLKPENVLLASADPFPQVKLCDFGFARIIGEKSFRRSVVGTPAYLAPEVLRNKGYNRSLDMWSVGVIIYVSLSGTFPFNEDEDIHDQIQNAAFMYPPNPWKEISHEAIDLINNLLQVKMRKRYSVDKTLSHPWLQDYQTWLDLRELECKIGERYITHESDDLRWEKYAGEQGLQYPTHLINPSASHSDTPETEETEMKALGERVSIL

Sample 1
Cell line: normal-adjacent organoid sample F
Technique: CellTiter-Glo
Concentration: 1 µM
Notes: replicate mean
Baseline: DMSO
Measurement: viability
O=C1c2ccc(Nc3ccc(F)cc3F)cc2CCc2ccc(OC[C@H](O)CO)cc21: 140%
C[C@@H](NC(=O)Nc1cc2[nH]ncc2c(CO)n1)c1ccccc1: 99.7%
C[C@H](c1ccnc(Nc2nc3ccc(-c4cc(N(C)C)ncn4)cc3[nH]2)c1)N1CCN(C(=O)CC(F)(F)F)CC1: 109%
Nc1nc(NCc2ccccc2)nc(-c2ccccc2CO)n1: 113%
CN1CCN(C(=O)C(C)(C)c2ccc(C(=O)Nc3cn4cc(-c5cc(C(C)(C)C)cc(C(C)(C)C)c5)ccc4n3)cc2)CC1: 87.2%

Sample 2
Target: DDIT3, bZIP domain (human)
Technique: DHFR protein complementation
Medium: yeast
Notes: single substitutions, most at no-binding floor
Baseline: wild-type JUN-FOS pair
Direction: higher = stronger binding
Measurement: binding fitness
Starting sequence: JUN, bZIP domain (human); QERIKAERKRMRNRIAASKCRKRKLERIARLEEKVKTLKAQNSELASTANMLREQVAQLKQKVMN; partner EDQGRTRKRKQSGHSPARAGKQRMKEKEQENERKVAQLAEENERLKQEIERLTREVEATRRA
A57Y: -0.0331 natural log
Q55Y: -0.0848 natural log
E54W: -0.457 natural log
T48G: -1.12 natural log
R30T: 0.133 natural log
N42T: -1.27 natural log
V56G: -0.992 natural log
A46S: 0.016 natural log

Sample 3
SMILES: CN(C)CCCn1cc(C2=C(c3c[nH]c4ccccc34)C(=O)NC2=O)c2ccccc21
Read-out: enzyme activity
Action: inhibitor
Concentration: 0.5 µM
Baseline: control
Measurement: remaining activity
PRKD1 (Homo sapiens, UniProt Q15139): 71.6%
CDK7 (Homo sapiens, UniProt P50613): 92.1%
PTK2B (Homo sapiens, UniProt Q14289): 98.5%
GRK5 (Homo sapiens, UniProt P34947): 71.6%

Sample 4
Target: ABI1, truncated, D143A, DHFR fusion (Arabidopsis thaliana, UniProt P49597)
Technique: DHFR PCA, dose-response
Medium: yeast
Notes: Hill fit, mean, not affinity
Together with: (+)-ABA, dose series
Direction: lower = more sensitive
Measurement: ABA EC50
Starting sequence: PYL1, truncated, DHFR fusion (Arabidopsis thaliana, UniProt Q8VZS8); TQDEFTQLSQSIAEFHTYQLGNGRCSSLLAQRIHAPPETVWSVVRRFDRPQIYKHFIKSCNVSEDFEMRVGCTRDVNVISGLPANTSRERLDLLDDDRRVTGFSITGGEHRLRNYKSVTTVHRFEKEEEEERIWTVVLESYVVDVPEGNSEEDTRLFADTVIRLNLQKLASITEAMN
R45I: 352 µM
P37Q: 29.5 µM
E125A: 2.5 µM
L166Q: 122 µM
E64C: 3.37 µM
I133N: 1.49 µM
S171E: 0.733 µM
L8T: 54.4 µM

Some of these lines once more (sample 1):
O=C1c2ccc(Nc3ccc(F)cc3F)cc2CCc2ccc(OC[C@H](O)CO)cc21: 140%
C[C@@H](NC(=O)Nc1cc2[nH]ncc2c(CO)n1)c1ccccc1: 99.7%
C[C@H](c1ccnc(Nc2nc3ccc(-c4cc(N(C)C)ncn4)cc3[nH]2)c1)N1CCN(C(=O)CC(F)(F)F)CC1: 109%
